Measurements pooled from the literature.
Each numbered part is a random draw from the data of one study; scales do not carry over between parts.

Block 1
Target: Ras GTPase-activating protein-binding protein 1, full length (G3BP1, Homo sapiens, UniProt Q13283)
Chain of UniProt Q13283 (whole entry, looked up): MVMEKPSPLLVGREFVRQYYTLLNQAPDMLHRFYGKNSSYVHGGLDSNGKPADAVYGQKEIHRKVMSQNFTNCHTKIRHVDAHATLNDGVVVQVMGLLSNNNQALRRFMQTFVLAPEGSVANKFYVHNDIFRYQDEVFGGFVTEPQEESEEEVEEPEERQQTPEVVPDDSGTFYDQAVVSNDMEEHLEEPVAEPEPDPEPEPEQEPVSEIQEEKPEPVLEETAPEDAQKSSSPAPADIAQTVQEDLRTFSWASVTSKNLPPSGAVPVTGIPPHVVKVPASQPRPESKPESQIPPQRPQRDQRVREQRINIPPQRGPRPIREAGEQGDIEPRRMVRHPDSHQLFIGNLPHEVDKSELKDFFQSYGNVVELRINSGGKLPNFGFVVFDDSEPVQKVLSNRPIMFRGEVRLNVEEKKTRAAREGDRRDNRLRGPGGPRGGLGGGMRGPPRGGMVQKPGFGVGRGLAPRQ
Method: RNA Bind-n-Seq
Form: RNA
Medium: in vitro
Tested at: 200 nM
Notes: whole 134-nt RNA, ends assumed
Added: 150 mM KCl
Baseline: input library
Direction: higher = stronger binding
Endpoint: log2 enrichment
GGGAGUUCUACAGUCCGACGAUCACCACGCAGGUGGGCAUCUUUGGGAAGUGGGGCAAGGGGGGGAUAGGGAGGGGGGUAACACUUUGGGAACAGGUGGUCCCAGGUCGUUUCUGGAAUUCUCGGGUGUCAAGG: 1.08
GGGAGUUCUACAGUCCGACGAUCCACAGACAACACGCACCCACACAGACACAAAGGGAAGGGGUUGGGAUGGGGACAGGGUGCACAGCAGGGCGGGGUAGGACCCCAGCCCCUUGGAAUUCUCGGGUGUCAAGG: 1.98
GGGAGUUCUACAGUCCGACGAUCUGGCCCUGGUGGCAUGCGGGGAGGAAGAGGUGGCCUCAUGGAUCGUGGUGGUCCCGGUGGAAUGUUCAGACGUGGCCGUGGUGGAGACAGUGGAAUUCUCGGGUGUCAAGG: 0.237
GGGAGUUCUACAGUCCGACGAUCAAGUCCUGUGCUACACAUCGUAUGUACCGAAUCGGGAGGGUUUUUGGGUUUUUGGGAAAGUAUUAUGUUACGCCGUUCGGAUCUGCACUUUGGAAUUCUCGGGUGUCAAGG: -0.189
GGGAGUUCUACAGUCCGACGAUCAGUCCUGUGCUACACAUCGUAUGUACCGAAUCGGGGUUUGGGGAAAAAGGGGAGGGGAAAGUAUUAUGUUACGCCGUUCGGAUCUGCACUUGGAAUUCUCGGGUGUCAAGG: 0.633
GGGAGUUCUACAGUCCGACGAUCCUCAAGUCCUGUGCUACACAUCGUAUGUACCGAAUCGGGAAGGGAAGGAAGGGAAAGUAUUAUGUUACGCCGUUCGGAUCUGCACUUCCAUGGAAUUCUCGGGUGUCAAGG: 0.276
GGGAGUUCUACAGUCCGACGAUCGUCCUGUGCUACACAUCGUAUGUACCGAAUCGGGCCCCCGGGCCCCCGGGGCCCCCGGGAAAGUAUUAUGUUACGCCGUUCGGAUCUGCAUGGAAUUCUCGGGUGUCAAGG: -1.1
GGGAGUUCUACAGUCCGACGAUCCAAGUCCUGUGCUACACAUCGUAUGUACCGAAUCGGGAGGGAAAAAAAGGGAGGGAAAGUAUUAUGUUACGCCGUUCGGAUCUGCACUUCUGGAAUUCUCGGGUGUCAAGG: 0.602
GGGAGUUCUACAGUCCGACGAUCCUGUGCUACACAUCGUAUGUACCGAAUCGGGGCCCCCCCGGCCCCCCCGGGCCCCCCCGGGAAAGUAUUAUGUUACGCCGUUCGGAUCUGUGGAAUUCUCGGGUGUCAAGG: -0.851

Block 2
Organism: Saccharomyces cerevisiae
Effect on: binding
Method: competitive growth deep sequencing
Form: peptide
Strain: cyclin E1-Cln2 fusion strain
Notes: peptide tiling library
Direction: direction not given
Endpoint: enrichment score
FQDSGYNELKSCSFDN: 1.03
GLPDFVFQQQPVESEA: 0.945
KPHVSDEEEEEPPFYH: 1.01
PKRAKRKLYTSEISSP: -0.527
DGCSPIKNWSPMRL: 1.83
VLVRTSACRSLFGPVD: 0.602
IVLICAKRSLCAAFSV: -1.11
DTERAHSTLDEDLERW: -1.43
SAVPLILPQAPSGPSY: 2.51
PKNAKRNLSSEFAN: 0.0909
SSEVARHLLFQSHM: -0.939
PAKRRLELGE: 0.474
SMTDFYHSKRRLIFSK: -0.807
PARRRLRLSVDEVSSP: -0.411
KPKPVKPVTFSTGIKM: 2.94
TARRIFQEPTEPKTKA: -1.48

Block 3
Target: Sal-like protein 4, full length isoform A (SALL4, Homo sapiens, UniProt Q9UJQ4, residues 1-1053)
Chain of UniProt Q9UJQ4 (whole entry, looked up): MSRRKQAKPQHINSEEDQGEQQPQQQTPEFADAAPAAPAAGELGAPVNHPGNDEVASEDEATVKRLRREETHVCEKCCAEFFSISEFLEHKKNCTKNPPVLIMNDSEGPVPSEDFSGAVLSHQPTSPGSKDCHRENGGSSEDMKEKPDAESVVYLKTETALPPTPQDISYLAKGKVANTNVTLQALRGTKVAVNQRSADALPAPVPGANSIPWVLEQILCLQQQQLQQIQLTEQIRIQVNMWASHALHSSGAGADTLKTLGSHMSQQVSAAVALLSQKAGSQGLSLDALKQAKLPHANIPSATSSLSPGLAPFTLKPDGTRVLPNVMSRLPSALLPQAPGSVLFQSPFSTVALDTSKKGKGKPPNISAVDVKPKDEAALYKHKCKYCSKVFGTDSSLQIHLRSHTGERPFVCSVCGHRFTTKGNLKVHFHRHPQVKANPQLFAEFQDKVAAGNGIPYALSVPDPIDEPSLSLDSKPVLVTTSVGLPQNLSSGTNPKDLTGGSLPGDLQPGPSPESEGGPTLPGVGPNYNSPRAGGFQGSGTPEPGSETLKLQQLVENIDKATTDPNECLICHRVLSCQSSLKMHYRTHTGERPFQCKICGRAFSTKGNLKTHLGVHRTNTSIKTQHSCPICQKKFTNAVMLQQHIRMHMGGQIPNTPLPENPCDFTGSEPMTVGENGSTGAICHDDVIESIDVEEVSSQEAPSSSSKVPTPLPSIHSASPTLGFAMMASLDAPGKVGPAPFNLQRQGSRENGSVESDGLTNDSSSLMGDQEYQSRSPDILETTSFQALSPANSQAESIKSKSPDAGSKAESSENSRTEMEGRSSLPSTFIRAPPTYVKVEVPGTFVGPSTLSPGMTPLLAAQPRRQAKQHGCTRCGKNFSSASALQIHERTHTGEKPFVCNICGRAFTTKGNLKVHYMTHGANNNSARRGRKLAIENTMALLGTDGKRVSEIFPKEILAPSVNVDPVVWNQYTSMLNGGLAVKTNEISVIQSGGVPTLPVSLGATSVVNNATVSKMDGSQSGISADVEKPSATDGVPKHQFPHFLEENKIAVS
Method: universal PBM
Form: double-stranded DNA, one strand shown
Medium: in vitro
Tested at: 600 nM
Notes: 8-mer, flanks averaged, mean of replicates
Direction: higher = stronger binding
Endpoint: E-score
GATGGGCA: -0.125
CATTTATC: 0.247
GCCGGCCC: -0.424
ATCACAAA: 0.191
CCCAAAGC: -0.134
CGGAGAAA: -0.106
AAGCCACA: 0.0198
TACCGACA: -0.0394
AGAGCCAA: 0.102
GGCAGCAA: -0.168
TGGACTAA: 0.0399
GAAGGCAC: -0.172
AGCTTTAA: 0.178
CGTGGCCC: -0.384
GCGTGAGA: -0.0487
CTCATTTA: 0.171
TAGTATGA: 0.311

Block 4
Target: RNA binding protein fox-1 homolog 2, RRM domain, GST-SBP tag (RBFOX2, Homo sapiens, UniProt O43251-10, residues 100-194)
Method: RNA Bind-n-Seq
Form: RNA
Medium: in vitro
Tested at: 365 nM
Notes: natural RNA segment, single round, ends assumed
Baseline: no-protein control
Direction: higher = stronger binding
Endpoint: RBNS enrichment (R)
Construct (chain): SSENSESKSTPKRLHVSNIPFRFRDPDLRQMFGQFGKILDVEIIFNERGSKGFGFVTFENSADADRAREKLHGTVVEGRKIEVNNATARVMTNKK
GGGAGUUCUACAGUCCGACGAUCCCCCAUGCAACACUGGAAAUGACUGUUCCAGAGAGCGGGCAGACCUGGCAGAGCGCCCCUGGCGCCUGAGACUACCACCCACUCCGUUCCUGCCAGAAACGACCCUCUGUUGGAAUUCUCGGGUGCCAA: 0.554
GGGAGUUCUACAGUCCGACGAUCGUGGGAUACUUUCUGCACCACUCUGAGUGAUUGUUACCUUGUAACCACUAGUAAGCUUUGUUCAUGCAGCUCAUAGUCCUCCCAAACAUAUGGGGAAUGUGUGUUUAUGUUGGAAUUCUCGGGUGCCAA: 0.551
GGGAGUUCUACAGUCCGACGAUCGCUGCGCCUGGUUUCGCCGGACAGAGUUGGUGUUUGGAGCCCAGCCGCCCUCGGGCGCACGGCCUGCCUGUCGCAUGUUUGUGUCUGCCUCGUCCCCUCCCCUGGUGCCUUGGAAUUCUCGGGUGCCAA: 9.32
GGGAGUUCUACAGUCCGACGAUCUUUUUCCUCCUCCAAUUGUUUUACCAGACCAGAGAGAGAAAUAAAAACCUCUCCUCACACUUGGUAUGGAGACUCGACUGAAAAUGAGUUGAGUUUGGUCCUCUCCUUUUUGGAAUUCUCGGGUGCCAA: 0.308
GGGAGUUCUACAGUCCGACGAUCGACUAAUGAGGCAUUACAAAUAAUAUUACUCUAUGAUGAUUGCUUCCACCCACACGACUGCAACAUACAGGUGCCUUGGGGAAAUGUGGAGAACAUUCAAUCUUGCCGUCUGGAAUUCUCGGGUGCCAA: 0.49
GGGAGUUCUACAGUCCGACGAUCAGAAAGCUAACAGUCAGUUUUUGCAACCUGUCUUCUGGAAGCAAAGUGAAAAGAAAUGACCAGGGCUAUGGCAAAAUCUGGUGAAUGUCGUGAGCUCUCCUACAUCUAUUUGGAAUUCUCGGGUGCCAA: 0.382
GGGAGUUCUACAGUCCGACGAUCCGUGUGUAUUAUUUAAUGUCACUAUUGGUUAGUGGCCAUUUUUCAGAACUGAAGAUGGAAUGGCCUGACCAGCUAUUAAGAACGUGGGGAGACGCAGAAAUUGUGGUAAAUGGAAUUCUCGGGUGCCAA: 0.397
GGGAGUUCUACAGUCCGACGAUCACUCGGAUAAUUUCUCCUAAGAGAAUUCCUUCAACAAAAGUGGAUCACUCAGACAGCACUUCCACGGACAAGUCCCUGUCAAAACUGACCCAUGCUGGUGGAGAACAGACUGGAAUUCUCGGGUGCCAA: 0.766

Repeated from above (block 2):
DGCSPIKNWSPMRL: 1.83
VLVRTSACRSLFGPVD: 0.602
IVLICAKRSLCAAFSV: -1.11
DTERAHSTLDEDLERW: -1.43
SAVPLILPQAPSGPSY: 2.51
